Results collected from several papers.
Lines come from different studies, so protocols differ. ± marks the error that the study gave.
Organism: Klebsiella pneumoniae

SMILES	test	test system	setting	how to read	measurement	result
CCCC(=O)NCC(=O)N[C@@H](CC(C)C)C(=O)N[C@@H](CC(C)C)C(=O)N[C@@H](CCCCN)C(=O)N[C@@H](CCCNC(=N)N)C(=O)N[C@H](C(=O)N[C@@H](CCCCN)C(=O)N[C@H](C(=O)N[C@@H](CC(C)C)C(=O)N[C@@H](CC(C)C)C(=O)NCCCC[C@H](NC(=O)[C@H](CC(C)C)NC(=O)[C@H](CC(C)C)NC(=O)[C@@H](NC(=O)[C@H](CCCCN)NC(=O)[C@@H](NC(=O)[C@H](CCCNC(=N)N)NC(=O)[C@H](CCCCN)NC(=O)[C@H](CC(C)C)NC(=O)[C@H](CC(C)C)NC(=O)CNC(=O)CCC)[C@@H](C)CC)[C@@H](C)O)C(N)=O)[C@@H](C)O)[C@@H](C)CC	checkerboard	ATCC 700603	with: polymyxin B		FIC index	0.312
CN(C)S(=O)(=O)c1ccc(S(=O)(=O)N2CCC(n3c(=O)[nH]c4ccccc43)CC2)cc1	survival under NO stress	DOU	4 h, with: NOC-5 14 µM		IC50	78.8 µM
C[C@@](O)(C(F)F)[C@H](NC(=O)c1ccc(C#CC#CC2CC2)cc1)C(=O)NO	broth microdilution	10031	with: mouse plasma 50%	reference: CAMHB alone	MIC fold increase	4
COc1ccc(-c2ccn(CC[C@](C)(C(=O)NO)S(C)(=O)=O)c(=O)c2)c(F)c1		KP-1487 FabZ P22S, neutropenic mice, thigh infection	dose not given, 24 h		AUC/MIC for 1-log kill	3.45 ± 2.11
COc1ccc2ccc3c(c2c1)C=[N+]1C2CCCCC2[N+]2=Cc4cccc(C)c4[O][Au-]21[O]3.F[P-](F)(F)(F)(F)F (stereo not shown)	bacterial growth, broth microdilution	carbapenem-resistant	24 h		MIC	20 µM
NC(CNC(CNC(CC(=O)O)C(=O)O)C(=O)O)C(=O)O (stereo not shown)		N11-2218 NDM-1-positive, CD-1 mice	dose not given		tissue bacterial load	no effect
COc1ccc2ccc3c(c2c1)C=[N+]1C2CCCCC2[N+]2=Cc4ccccc4[O][Au-]21[O]3.F[P-](F)(F)(F)(F)F (stereo not shown)	bacterial growth, broth microdilution	carbapenem-resistant	24 h		MIC	> 20 µM
CC[C@H](C)[C@H](NC(=O)[C@H](CCCNC(=N)N)NC(=O)[C@H](CCCCN)NC(=O)[C@H](CC(C)C)NC(=O)[C@H](CC(C)C)NC(=O)CN)C(=O)N[C@@H](CCCCN)C(=O)N[C@H](C(=O)N[C@@H](CC(C)C)C(=O)N[C@@H](CC(C)C)C(=O)NCCCC[C@H](NC(=O)[C@H](CC(C)C)NC(=O)[C@H](CC(C)C)NC(=O)[C@@H](NC(=O)[C@H](CCCCN)NC(=O)[C@@H](NC(=O)[C@H](CCCNC(=N)N)NC(=O)[C@H](CCCCN)NC(=O)[C@H](CC(C)C)NC(=O)[C@H](CC(C)C)NC(=O)CN)[C@@H](C)CC)[C@@H](C)O)C(N)=O)[C@@H](C)O	checkerboard	ATCC 700603	with: rifampicin		FIC index	0.562
COc1ccc2ccc3c(c2c1)C=[N+]1C2CCCCC2[N+]2=Cc4c(F)cccc4[O][Au-]21[O]3.F[P-](F)(F)(F)(F)F (stereo not shown)	bacterial growth, broth microdilution	carbapenem-resistant clinical isolate	24 h		MIC	> 20 µM
CCCCCC(=O)NCC(=O)N[C@@H](CC(C)C)C(=O)N[C@@H](CC(C)C)C(=O)N[C@@H](CCCCN)C(=O)N[C@@H](CCCNC(=N)N)C(=O)N[C@H](C(=O)N[C@@H](CCCCN)C(=O)N[C@H](C(=O)N[C@@H](CC(C)C)C(=O)N[C@@H](CC(C)C)C(=O)NCCCC[C@H](NC(=O)[C@H](CC(C)C)NC(=O)[C@H](CC(C)C)NC(=O)[C@@H](NC(=O)[C@H](CCCCN)NC(=O)[C@@H](NC(=O)[C@H](CCCNC(=N)N)NC(=O)[C@H](CCCCN)NC(=O)[C@H](CC(C)C)NC(=O)[C@H](CC(C)C)NC(=O)CNC(=O)CCCCC)[C@@H](C)CC)[C@@H](C)O)C(N)=O)[C@@H](C)O)[C@@H](C)CC	checkerboard	ATCC 700603	with: gentamicin		FIC index	0.375
